# Measurements collected from several papers.
# Parts stem from different laboratories: compare values within a part only. Changes are numbered by the printed parent chain.

# Set 1
# Target: Interferon regulatory factor 7, full length, phosphomimetic (IRF7, Homo sapiens, UniProt Q92985, residues 1-503, S471D/S472D/S475D/S476D/S477D/S483D/S484D/S487D)
# UniProt Q92985, sequence (whole entry, unmodified, looked up): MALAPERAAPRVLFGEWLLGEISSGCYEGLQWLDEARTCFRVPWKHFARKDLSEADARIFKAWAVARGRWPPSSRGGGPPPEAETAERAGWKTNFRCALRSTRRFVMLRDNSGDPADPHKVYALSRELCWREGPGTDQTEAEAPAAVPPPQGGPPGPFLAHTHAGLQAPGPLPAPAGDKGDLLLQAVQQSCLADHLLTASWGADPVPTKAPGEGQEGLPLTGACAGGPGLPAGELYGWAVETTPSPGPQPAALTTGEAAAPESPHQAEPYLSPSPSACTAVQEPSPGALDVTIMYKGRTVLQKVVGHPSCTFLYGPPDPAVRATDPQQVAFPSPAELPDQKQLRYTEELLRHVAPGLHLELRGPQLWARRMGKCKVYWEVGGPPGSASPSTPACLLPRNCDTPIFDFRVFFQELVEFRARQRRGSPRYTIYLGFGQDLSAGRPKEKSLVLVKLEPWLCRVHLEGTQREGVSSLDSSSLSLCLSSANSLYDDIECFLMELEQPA
# Method: protein-binding microarray
# Form: double-stranded DNA, one strand shown
# Medium: in vitro
# Concentration: 2200 nM top
# Setting: 60-bp whole probe
# Added: salmon DNA 0.4 mg/ml
# Baseline: random background probes
# Direction: higher = stronger binding
# Shared flanks, not repeated: GCCTAGCAC … GTCTTGATTCGCTTGACGCTGCTG
Sequence,fitted relative affinity [z-score]
GACGAACTGGGGTTTCGAGACGTGCTA,1.37
TTAGTTTTCATTATTGTGTCGTGCTAG,2.49
CGAGTTTCTATTTTCTGAATGTGCTAG,6.3
TTAGATTTCACTCTCGATTAGTGCTAG,1.54
TTAGATATCAGACTGGCTTAGTGCTAG,-0.313
ATAGGACTGGGTATCGGTTAGTGCTAG,0.0546
GATGGTTTCCTTCTCCTGACGTGCTAG,2.79
TTAGAACTGAGAATGGATTAGTGCTAG,-0.884
TTAGATATCGGGTATCGGTTAGTGCTA,0.51
TCAAGTCTAGCCATTGTGACTGTGCTA,-0.0626
AACGGTTTCGGTTTCGGGACGTGCTAG,15.3
TCAGCTCTGCGGTTCAGACTGTGCTAG,0.149
TCATTTATACCTTAGGTACTGTGCTAG,0.765
TTAGGTCTCGGTATCGGTAAGTGCTAG,0.636
TTCGGTATCCTTTTCCTTTAGTGCTAG,2.85
TCATGGGTCTTGTCTGGAACTGTGCTA,0.00528
GACGAGTCCAGTTTCGAGACGTGCTAG,3.75
TTAGAACTGAGTCTCGATTCGTGCTAG,0.608
TCAGGACTGGGTCTCGGTTAGTGCTAG,-0.296

# Set 2
# Target: FOSB, bZIP domain (human)
# Method: DHFR protein complementation
# Medium: yeast
# Setting: single substitutions, most at no-binding floor
# Baseline: wild-type JUN-FOS pair
# Direction: higher = stronger binding
# Parent: JUN, bZIP domain (human); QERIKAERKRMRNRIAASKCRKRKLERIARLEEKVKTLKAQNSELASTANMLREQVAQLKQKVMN
Change,binding fitness [natural log]
V56S,-1.39
L45D,-1.27
L59W,-1.22
V56W,-1.31
L38D,-1.35
L52W,-1.26
A40P,-1.48
L45E,-1.49

# Set 3
# Target: Prothrombin, mature alpha-thrombin (F2, Homo sapiens, UniProt P00734)
# Method: aptamer microarray, sandwich
# Form: DNA with 2'F-ANA
# Medium: in vitro
# Concentration: 200 nM
# Setting: whole 15-mer aptamer, many near background
# Added: Cy3 exosite-II aptamer, 400 nM
# Direction: higher = stronger binding
# Sequence: GGTTGGTGTGGTTGG
Modification,mean fluorescence intensity [a.u.]
2'F-ANA at 1 3 4 5 6 7 9 11 13 14 15,51.2
2'F-ANA at 1 5 7 9 10 12 14 15,142
2'F-ANA at 1 3 4 6 7 8 12 14 15,95.3
2'F-ANA at 3 4 5 6 7 8 9 11 12,183
2'F-ANA at 1 5 7,56
2'F-ANA at 1 5 7 8 11 12 14,47.4
2'F-ANA at 3 5 6 10 11 12,59.2
2'F-ANA at 3 7 8 10 13 15,570
2'F-ANA at 1 2 3 4 5 7 9 10 13 14 15,117
2'F-ANA at 3 4 6 9 10 11 14 15,184
2'F-ANA at 1 4 13 15,86.9
2'F-ANA at 3 4 10 11 14,220
2'F-ANA at 3 6 11 13,823
2'F-ANA at 7 9 12 14,239
2'F-ANA at 3 4 6 7 11 13 15,427
2'F-ANA at 1 2 5 7 8 9 15,78.9
2'F-ANA at 3 5 8 12 14 15,68.9
2'F-ANA at 3 10 11 12 13 14 15,329
2'F-ANA at 1 3 10 11 12 14,60.8
2'F-ANA at 3 4 5 9 10 11 12 15,57.9
2'F-ANA at 2 4 5 8 12 15,166

# Set 4
# Target: CCNB1, cyclin fold, Cln2 fusion (human)
# Method: yeast growth competition, sequencing
# Medium: yeast
# Setting: strong parent motif
# Baseline: not given
# Direction: higher = stronger binding
# Parent: PKN2 docking peptide (human); VSAVQKLDFSDTM; partner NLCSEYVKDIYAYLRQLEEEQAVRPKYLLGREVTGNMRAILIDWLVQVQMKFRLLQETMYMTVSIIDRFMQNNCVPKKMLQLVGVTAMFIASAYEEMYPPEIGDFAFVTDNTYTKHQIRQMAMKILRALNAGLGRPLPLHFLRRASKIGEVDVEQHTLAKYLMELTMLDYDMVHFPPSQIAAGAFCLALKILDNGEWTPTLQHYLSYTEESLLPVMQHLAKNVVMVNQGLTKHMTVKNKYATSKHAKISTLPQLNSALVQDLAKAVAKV
Change,normalised enrichment score
L7T,-0.638
S2L,1.66
L7E,0.16
F9I,0.621
T12V,1.95
K6Q,1.64
S2V,1.08
V4T,0.351
M13W,1.68
F9N,0.0905
M13E,2.92
S10H,1.74
S2Q,2.21
Q5R,3.26
L7C,0.445
T12P,2.83
F9A,0.42
S2F,2.15
S10N,1.53
F9T,0.141
V1H,2.34
L7W,-0.057
T12E,2.83

# Set 5
# Target: Histone acetyltransferase KAT6A, both winged helices, GST fusion (KAT6A, Homo sapiens, UniProt Q92794, residues 1-181)
# Method: protein binding microarray
# Form: double-stranded DNA, one strand shown
# Medium: in vitro
# Concentration: not given
# Setting: 8-mer, flanks averaged, mean of 2 arrays, mostly near background
# Baseline: not given
# Direction: higher = stronger binding
# Residues (chain): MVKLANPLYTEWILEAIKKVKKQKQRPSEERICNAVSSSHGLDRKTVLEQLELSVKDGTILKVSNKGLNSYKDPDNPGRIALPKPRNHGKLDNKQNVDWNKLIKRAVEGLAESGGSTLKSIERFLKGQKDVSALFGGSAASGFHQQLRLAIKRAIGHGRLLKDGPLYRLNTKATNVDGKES
Sequence,E-score
CATAAATG,-0.0924
AAATGCTG,-0.253
CAAATATG,-0.0265
ATGCATAA,-0.0958
AGGCTCAA,-0.154
CCACTATA,-0.167
CGGGTCCA,0.0751
ATCTTAAT,-0.116
ATATCTCC,0.0467
ACGACGCG,0.263
ACGAATCA,-0.0147
TCGAACCA,-0.143
AGTTGCAG,-0.164
AGGCGACT,-0.046
CAGCTATG,-0.167
ACGTTGCC,0.0737
AACCCAAC,-0.291
CCTGCCCC,-0.179
ATAAAATG,-0.0184
ATTCACTG,-0.119

# Some of these lines once more (set 4):
Change,normalised enrichment score
K6Q,1.64
S2V,1.08
V4T,0.351
M13W,1.68
F9N,0.0905
M13E,2.92
S10H,1.74
S2Q,2.21
Q5R,3.26
L7C,0.445
T12P,2.83
F9A,0.42
S2F,2.15
S10N,1.53
